Assay results of several laboratories.
Each numbered part is a random draw from the data of one study; scales do not carry over between parts.

Set 1
Target: Centromere-binding protein 1, full length, N-terminal tag (CBF1, Saccharomyces cerevisiae, UniProt P17106, residues 1-351)
Sequence of UniProt P17106 (whole entry, looked up): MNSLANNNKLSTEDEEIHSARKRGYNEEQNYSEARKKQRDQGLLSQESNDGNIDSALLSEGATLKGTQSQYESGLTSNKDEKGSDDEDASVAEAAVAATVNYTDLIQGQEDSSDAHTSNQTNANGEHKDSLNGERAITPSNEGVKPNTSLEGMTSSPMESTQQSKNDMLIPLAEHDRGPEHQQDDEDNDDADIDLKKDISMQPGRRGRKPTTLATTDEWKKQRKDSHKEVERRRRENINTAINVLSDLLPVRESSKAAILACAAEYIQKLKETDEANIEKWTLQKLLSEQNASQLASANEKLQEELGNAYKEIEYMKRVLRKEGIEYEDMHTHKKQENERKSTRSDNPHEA
Technique: protein-binding microarray
Molecule type: double-stranded DNA, one strand shown
Matrix: in vitro
Concentration: 0.8 µM
Notes: whole 60-bp probe, no competitor
Direction: higher = stronger binding
Measurement: fluorescence intensity
Constant ends, left off below: … GTCTTGATTCGCTTGACGCTGCTG
CTATGTTATATTGCTCACGTAACAACTTCTATGTTC: 593 a.u.
GAAGTACAGAAATGATATCACATGTAAGTGATATAG: 2050 a.u.
CTAATAAACTTCAATCAGGTGATTTTTTTTTTGTTC: 3430 a.u.
CTACTTCCCATTCATGATGTGATTACGCATTTTTTC: 552 a.u.
CTAGACGCGTTAGGCGTGGTGCTAAAGATGGCGTTC: 518 a.u.
GAAGTAATTAATGGTATCGTGATCGTTACCTATTAG: 2110 a.u.
CTAAATTGTTCGTGGCACATGAAAAAAAAAAAATTC: 692 a.u.
CTATTCTTTTTCTTTCTGATGATAATGACAACTTTC: 641 a.u.
GAATTATGAACGTTCAGGGTGACGTATTGTCATTAG: 492 a.u.
CTATAACTAGTGCATCACCACTTGTCTAAATACTTC: 523 a.u.
TGTACGAAGCTATCATAGGTGACTATAGTAGTTAGG: 530 a.u.
GAAGCACCCGCACGTGACTACACCGGGTAACGATAG: 18100 a.u.
GAAATGCCCTTATTCCTCATGACAGACTGAAACTAG: 577 a.u.
CTACCAGGTTTTGACAACGTGATGAGGTAATCTTTC: 2310 a.u.
CTACATACATGCACGCACATACATGCACGCGCATTC: 674 a.u.
CTAGTTGGTTTGCATCTGATGTTCCTTAAAGATTTC: 556 a.u.
CTATCCTGGACTATAGACGTGAGTGGGGAGGAATTC: 530 a.u.
CCTAACTACTATAAGCACGCAAAATAGCTTCGTACA: 510 a.u.
CTATGGCGGTTTCACCAGACAACATAACACAGTTTC: 500 a.u.
GAAGTGGCTCACACACATGTGGGCGCTATCCCCTAG: 526 a.u.
CTACGCCAGATTCATCTCCTGTTGGAGTGTTGATTC: 493 a.u.
GAACACATAGGTAATAAGGTGACAAGTAGCAAGTAG: 532 a.u.
CTATTTCTTTCAGGTCACCTCTCAGCCGTCACGTTC: 639 a.u.
CTATGTGCTGACTCCAATGAAATAACTCTAAAATTC: 531 a.u.
GAACCCGCACCCCGTAGTCACGTTCGCCTTCGCTAG: 2300 a.u.

Set 2
Target: Histone acetyltransferase KAT6A, winged helix 1, GST fusion (KAT6A, Homo sapiens, UniProt Q92794, residues 1-85)
Technique: protein binding microarray
Molecule type: double-stranded DNA, one strand shown
Matrix: in vitro
Concentration: not given
Notes: 8-mer, flanks averaged, mean of 2 arrays, mostly near background
Reference: not given
Direction: higher = stronger binding
Measurement: E-score
Construct (chain): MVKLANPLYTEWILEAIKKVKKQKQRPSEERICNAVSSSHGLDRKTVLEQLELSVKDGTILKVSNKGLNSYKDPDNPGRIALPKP
ATGTAGAG: -0.256
CGTTCCTA: -0.123
ACATACAG: -0.163
GAGTTTGA: -0.167
CTAGCGTC: 0.157
CCCAAGAG: -0.279
CCATCCAA: -0.148
CAACGTCG: -0.0692
TGGACCAA: -0.04
AATCTTCA: -0.126
ATCATAAT: -0.151
ATAAAATA: -0.0442
AGGACATG: -0.113
GAAAAGCC: 0.131
ATCAACTC: -0.23
AGCGGATA: 0.208
ACCCCGTG: 0.321
CCTTCCAG: -0.275
CGGGAGGA: 0.162
AGGTGTAC: 0.0302
AATCATGA: -0.195
AACTATGC: 0.0114
GTTGCTTA: -0.0637
CCCTCCCA: -0.0428

Set 3
Target: Interferon regulatory factor 5, full length, phosphomimetic (IRF5, Homo sapiens, UniProt Q13568-2, residues 1-514, S451D/S453D/S456D/S462D)
Technique: protein-binding microarray
Molecule type: double-stranded DNA, one strand shown
Matrix: in vitro
Concentration: 940 nM top
Notes: 60-bp whole probe
With: salmon DNA 0.4 mg/ml
Reference: random background probes
Direction: higher = stronger binding
Measurement: fitted relative affinity
Constant ends, left off below: GCCTAGCAC … GTCTTGATTCGCTTGACGCTGCTG
TCATATTAAAATTTCATACTGTGCTAG: 0.467 z-score
CTGCCCTGGTTCCCCTGCCTGTGCTAG: -0.12 z-score
TTTGATATCAGTCTCGATTAGTGCTAG: 3.57 z-score
TTAGGTTACCTTATCCTTTAGTGCTAG: -0.205 z-score
TCAGTTTTTACTTTCTGACTGTGCTAG: 1.47 z-score
TAAGATCTCAGTCTCGATTAGTGCTAG: 3.28 z-score
GACGGTTTCCTTCTCCTGAGGTGCTAG: 1.21 z-score
GACGGACTGGACTTTCGGGAAGTGCTA: 0.0368 z-score
GACGATATCGGGGATCGAGACGTGCTA: 0.101 z-score
TTATGTTTCGGACTGGGTTAGTGCTAG: 3.2 z-score
CTACTTCTCTTTTGGCTTTCGTGCTAG: 1.73 z-score
GGAGAAAAATCATGAAAATAGTGCTAG: -0.218 z-score
GACGGACTGGACTCTGGGGACGTGCTA: -0.294 z-score
GACGAGTTCAGTATCGAGACGTGCTAG: 2.78 z-score
GACGAACTGAGTCTCGAGACGTGCTAG: 0.791 z-score
GACGGTTCCCTTTTCCGGACGTGCTAG: 1.04 z-score
AACGGTTTCGGTCTCGGGACGTGCTAG: 13.7 z-score
TTAGGACTGGACACTGGCTTAGTGCTA: -0.497 z-score
GACGGACTGCTTATCCTGGCGTGCTAG: -0.506 z-score
TTAGATTTCCGTATCGATTAGTGCTAG: 3.06 z-score
TTAGGTGCCGGTTTCGGTTAGTGCTAG: 7.11 z-score
TCACTTCTCAATTAAAAACTGTGCTAG: 1.59 z-score
TCACCTTCAGCTCTAGGACTGTGCTAG: -0.292 z-score

Set 4
Target: RING finger protein unkempt homolog, zinc fingers 1-6, GST-SBP tag (UNK, Homo sapiens, UniProt Q9C0B0, residues 30-357)
Technique: RNA Bind-n-Seq
Molecule type: RNA
Matrix: in vitro
Concentration: not given
Notes: RNA with constant flanks, human and mouse sites, ends assumed
Reference: input RNA pool
Direction: higher = stronger binding
Measurement: bound/input enrichment
Constant ends, left off below: GGGAGUUCUACAGUCCGACGAUC … CAACAGAGGAUUGAGCAUCA
Residues (chain): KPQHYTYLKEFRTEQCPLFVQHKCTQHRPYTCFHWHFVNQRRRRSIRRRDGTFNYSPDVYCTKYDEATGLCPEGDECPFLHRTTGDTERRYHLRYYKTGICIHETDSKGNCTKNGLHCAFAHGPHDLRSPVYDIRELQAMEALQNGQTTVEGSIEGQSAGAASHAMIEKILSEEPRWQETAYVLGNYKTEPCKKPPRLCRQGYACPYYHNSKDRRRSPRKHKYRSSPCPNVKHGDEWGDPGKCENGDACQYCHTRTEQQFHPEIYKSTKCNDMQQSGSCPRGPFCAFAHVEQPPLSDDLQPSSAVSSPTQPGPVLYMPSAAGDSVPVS
GAACCUUUAAUAUGUCCCCUUUGUAGAUCUAAGUGGAGAUCUCAUGAUUUCUACAGCCACGAGUUGUCAAGUCCUGUGGAUUCCCCUUCUUCCCUCAGAGCUGCACAGCAGCAAACCGUA: 0.587 ratio
UCUUAACUUAUUCAUUUAACUUAUUUUUAUAGCUAGAUAAAUAUUGUUAGUCUUAGACAAUAGCUCACAUUUUUUGAGAAGCAUGCCCUCCCUGUCCAUUUGUCUUAUAACAUGACCCAG: 13.2 ratio
CUUGGUGUUCAUAUGUAUCUUUUAAUUUUUUUGAAAUUUGUUCAAGCUGUCAUUCCAACAAUAGAAUAUGACUACACAAGACACUUCACAAUGUAGUGGAGAGGCUAUAGAGUCUAUCCU: 6.33 ratio
AUUGCAGCUAAAUACCAGUUGGAUCCUACUGCUUCUAUCUCUGCAAAGGUCAACAACUCUAGUUUAAUUGGAGUGGGCUAUACUCAGACUCUGAGGCCUGGUGUGAAGCUUACACUGUCU: 0.181 ratio
AGAUUCAAACCUGUGGUACCAUGGCCUCAUGUUGAAGGAGUAGAAGUGGACUUAGAGUCUAUUAGAAGAAUAAACAAGGCCAAAAAUGAACAAGAGCACCAUGCUGGAGGAGAUUCCCAG: 4.18 ratio
GGCAGGUAUUCAAUACACAAUUCAGGCAUUAGUUUCUCAGUUAAAAAACAAGGUGAGACAGUAUCUGAUGUCAGAACACUGCCCAAUGCCACAACCGUGGACAACAUUCGCUCCAUCUUU: 0.0664 ratio
UCCAACGAACUUUUGGAAGAGGCCUUUAGCCAGUUUGGUCCUAUUGAAAGGGCUGUUGUAAUUGUGGAUGAUCGCGGAAGAUCUACAGGGAAAGGCAUUGUUGAGUUUGCUUCCAAGCCA: 0.332 ratio
GGAGGGUAUGGAGGCUAUGAUGACUAUGGUGGCUAUAAUGAUGGAUAUGGCUUUGGGUCUGAUAGAUUUGGAAGAGACCUCAAUUACUGUUUUUCAGGAAUGUCUGAUCAUAGAUACGGA: 0.74 ratio
